Experimental data collected from several papers.
Every numbered part comes from another study and shows a few of its results, in no order. Changes are numbered by the printed parent chain.

Series 1
Target: RNA binding protein fox-1 homolog 2, RRM domain, GST-SBP tag (RBFOX2, Homo sapiens, UniProt O43251-10, residues 100-194)
Method: RNA Bind-n-Seq
Molecule type: RNA
Matrix: in vitro
Concentration: 365 nM
Setting: natural RNA segment, single round, ends assumed
Reference: no-protein control
Direction: higher = stronger binding
Construct (chain): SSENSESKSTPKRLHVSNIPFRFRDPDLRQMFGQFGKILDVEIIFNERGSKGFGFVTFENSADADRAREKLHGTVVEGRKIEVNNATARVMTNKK
Under “RBNS enrichment (R)”, `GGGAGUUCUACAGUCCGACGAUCGAAUGCUGCUGUGUCUGUCAUGUGUGCACUCCUCGCCCCUCCUCGCUUUGCUAACCAAAGAACAUAUAUUUUACUGUCCAUUUCCUCAGCUCCCCAGUCCGAGUAGCAUUUGGAAUUCUCGGGUGCCAA` is recorded as 8.22.
`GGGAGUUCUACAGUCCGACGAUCCACCUGCAUUGCCUCACCAGUGUAUUUAUUUGUUAUUAAAUUGAUCUGACUUCUCAGCCUCAUUUGGACUAAAAAAAGAAAGCAGAAAUCCAUGAACACAUUGCUUCUCGUGGAAUUCUCGGGUGCCAA` — result for “RBNS enrichment (R)”: 0.772.
Under “RBNS enrichment (R)”, `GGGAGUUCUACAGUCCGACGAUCUAAAAAUGAGACCCCCAACUACCUAAAGCACCCAUCUUUGUAACUAGACCAUAACUAUACUGCUUUCAUCUGGUUCACCCCCUCUAUGUCAAGAGUCAAACUGUGUGAGAUGGAAUUCUCGGGUGCCAA` is recorded as 0.417.
For `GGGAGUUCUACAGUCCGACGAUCAAAUUAACUGCAUAUAAAAUGGUUCACUUUUAUAUAGUCACAUGUAAUGGGCCUGAAAAAGUUUCUUCUUUGAUUAUGUAGUUACUCUAGAUACAUUCUUUUAGGGAAGUUGGAAUUCUCGGGUGCCAA`, “RBNS enrichment (R)” read 0.389.
`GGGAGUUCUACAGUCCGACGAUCCUCAUCAUAAUAUUUUUAUUAGAAUGUUCUGAUGAUAAAAAUAAAACUUGUUUUCUUUAAAGAAAAAGUUGAUCUAAUUUUUCUCAAAACGCAGAGCUCCCCUCGUGCCUUGGAAUUCUCGGGUGCCAA`: “RBNS enrichment (R)” 0.392.
For `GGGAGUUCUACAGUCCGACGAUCGUAACUUUUGAUACCAGAAUAAAUCUUUCGUGUUUGUCACUAAAGCAUCGGAGUCUCGCUAGUUUCUCAUGGUUGGGUCACAGCAUCCUUGUCGCUGUAUUAAGUGCAGUUGGAAUUCUCGGGUGCCAA`, “RBNS enrichment (R)” read 0.33.
`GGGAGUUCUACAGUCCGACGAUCAUCCAGGACCACAGUGACACAUUAAAGGAAACUGGCUAAGCAGUGGACUAUCCAAUUCAGGAAGCAGGAAAGCAGCCAGGAAAUGUGCUUCUGUUUUGCCAGUUAUUUCCUGGAAUUCUCGGGUGCCAA`: “RBNS enrichment (R)” 0.466.
`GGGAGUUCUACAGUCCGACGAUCAUUGACUUUUAUUCCAUUUUUAUAUGAAGGUGUUAGAUAUAGCCAUCAAUUUAUUUUUCUACAUUCCCUCUACGCUUAUGUAAUUUUCUAUUUUUAAAUCUUCUCUUAAAUGGAAUUCUCGGGUGCCAA` — result for “RBNS enrichment (R)”: 0.856.
`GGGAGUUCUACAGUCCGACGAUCAAGAGGAGCUGCCUAGCCUGGCAGCAUUGCCCCGAGCUGAGCCCCCUUGGCCAGGACUUCACAAGGCUCACACCUACAAUCCCAUGAAGGCCAGGGUGGUCUGCUUAGCCUGGAAUUCUCGGGUGCCAA` — result for “RBNS enrichment (R)”: 0.289.
`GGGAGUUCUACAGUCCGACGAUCGCGUAUCCGCCACCAGGGACAUUAAGAAACCGCACGUGAUGUCGCUAUGCUCUAACGAUCACCUCAGUUCUCCCUCGGAUUCUGGGAACAGAUGAAACUUUUUGCAUCGCUGGAAUUCUCGGGUGCCAA`: “RBNS enrichment (R)” 1.34.

Series 2
Target: CCND1, cyclin fold, Cln2 fusion (human)
Method: yeast growth competition, sequencing
Matrix: yeast
Setting: weak parent motif
Reference: not given
Direction: higher = stronger binding
Parent: MASTL docking peptide (human); PMIAKNLMCELDE
`PMITKNLMCELDE [A4T]`: “normalised enrichment score” 0.135.
`PMIAKNLMCELNE [D12N]` — result for “normalised enrichment score”: -0.0925.
`PLIAKNLMCELDE [M2L]`: “normalised enrichment score” 0.244.
For `PMIAKNLMCELHE [D12H]`, “normalised enrichment score” read 0.162.
`PMIAKNLMLELDE [C9L]`: “normalised enrichment score” 0.215.
`PMIAGNLMCELDE [K5G]`: “normalised enrichment score” -0.297.
Under “normalised enrichment score”, `PMIAKNMMCELDE [L7M]` is recorded as -0.155.

Series 3
Target: Histone acetyltransferase KAT6A, winged helix 2, GST fusion (KAT6A, Homo sapiens, UniProt Q92794, residues 85-181)
Method: protein binding microarray
Molecule type: double-stranded DNA, one strand shown
Matrix: in vitro
Concentration: not given
Setting: 8-mer, flanks averaged, mean of 2 arrays, mostly near background
Reference: not given
Direction: higher = stronger binding
Target sequence (chain): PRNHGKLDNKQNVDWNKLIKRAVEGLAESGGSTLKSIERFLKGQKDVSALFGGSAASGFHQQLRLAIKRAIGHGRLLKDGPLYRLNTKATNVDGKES
`CCTAGCAA` gave an E-score of -0.0154.
With `TGCCTCCA` the E-score was -0.0901.
The E-score of `TACAGTGA` is reported as -0.103.
For `AGTTCAAA`, the E-score was 0.0709.
The E-score of `GACCTACA` is reported as -0.0982.
`AAGTTACT` has an E-score of -0.0898.
With `AAGTACCC` the E-score was -0.15.
For `GGAGAGTA`, the E-score was 0.0333.
For `CCTCCGAG`, the E-score was 0.058.
`AATTCTGA` gave an E-score of 0.0804.
The E-score of `CCGTGGTA` is reported as -0.0657.

Further values, each from its own experiment
With `PhoQ, residues 284 288 289 292 302 303 NLAAMI` the fold induction was 4.66 (PhoP, residues 12 14 15 18 19 TPLRH (Escherichia coli, UniProt P23836); Sort-seq, refers to: YFP reporter; E. coli; PhoQ-PhoP variant library, together with: 10 µM Mg2+; reference: high Mg2+ state, higher = stronger signaling).

A few entries again (series 2):
`PMIAKNLMCELNE [D12N]` — result for “normalised enrichment score”: -0.0925.
`PLIAKNLMCELDE [M2L]`: “normalised enrichment score” 0.244.
For `PMIAKNLMCELHE [D12H]`, “normalised enrichment score” read 0.162.
`PMIAKNLMLELDE [C9L]`: “normalised enrichment score” 0.215.
